Experimental data gathered from unrelated publications.
Every numbered part comes from another study and shows a few of its results, in no order.

Set 1
Cell line: HEK-293T/ACE2
Concentration: concentration not given
Time: 16 (unit not given)
Relative to: vehicle
SMILES	viability [%]
CN1CCc2nc(C(=O)N[C@@H]3C[C@@H](C(=O)N(C)C)CC[C@@H]3NC(=O)C(=O)Nc3ccc(Cl)cn3)sc2C1	51.8
COc1cc2nc(N3CCN(C(=O)C4CCCO4)CC3)nc(N)c2cc1OC (stereo not drawn)	109
CCCCCCCCCC(=O)O[C@H]1CC[C@H]2[C@@H]3CCC4=CC(=O)CC[C@@H]4[C@H]3CC[C@]12C	104

Set 2
Target: Centromere-binding protein 1, full length, N-terminal tag (CBF1, Saccharomyces cerevisiae, UniProt P17106, residues 1-351)
Chain of UniProt P17106 (whole entry, looked up): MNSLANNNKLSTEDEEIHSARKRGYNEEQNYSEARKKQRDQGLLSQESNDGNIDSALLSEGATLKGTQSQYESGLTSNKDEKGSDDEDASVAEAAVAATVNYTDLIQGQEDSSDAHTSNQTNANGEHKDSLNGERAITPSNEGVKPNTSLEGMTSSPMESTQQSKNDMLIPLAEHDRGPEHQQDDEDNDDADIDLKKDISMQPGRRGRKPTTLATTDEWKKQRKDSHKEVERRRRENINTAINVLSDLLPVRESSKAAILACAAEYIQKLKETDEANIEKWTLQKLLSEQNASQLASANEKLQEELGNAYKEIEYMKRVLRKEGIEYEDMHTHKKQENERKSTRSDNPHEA
Method: protein-binding microarray
Molecule type: double-stranded DNA, one strand shown
Matrix: in vitro
Concentration: 0.8 µM
Setting: whole 60-bp probe, no competitor
Reading: higher = stronger binding
Constant ends, left off below: … GTCTTGATTCGCTTGACGCTGCTG
Sequence	fluorescence intensity [a.u.]
CTAGCTGGTGCAGGTGACGCACGAACTTCTTAGTTC	1640
CTATACACGTGATTTAATATATCCTGTTTTTTTTTC	12000
CTACGCCAAGCAAGCCTCACGAGGATCGTCGGTTTC	540
CTAATCACGATATATCACGATACACGACTCTCCTTC	867
CTATGAACAGAAACAAATCACATGTTTCCTTGGTTC	3150
GAACGAGTTCGAGGGCACGTTAGTTGGTTTCGATAG	514
GAATTCAGAGTCAACGTGATCGTTCTAACTTTCTAG	1890
CTATTTCAGATCGCGCACGACGGAGAGGTTTTTTTC	510

Set 3
Target: Replicase polyprotein 1ab, nsp13 helicase (rep, Severe acute respiratory syndrome coronavirus 2, UniProt P0DTD1)
Mode: inhibitor
Concentration: 20 µM
Compound	inhibition [%]
O=C(O)CCN(O)C(=O)CCCCCCCCC1CC1	2.44
CN(C)c1cc(CNCC(C)(C)C)c(O)c2c1C[C@H]1C[C@H]3[C@H](N(C)C)C(O)=C(C(N)=O)C(=O)[C@@]3(O)C(O)=C1C2=O	9.16
O=c1[nH]c2ccc(Cl)cc2c(N[C@@H]2CN3CCC2CC3)c1-c1nc2ccccc2[nH]1	37.4
CC(C)NCC(O)c1ccc2ccccc2c1 (stereo not drawn)	1.94
O=C(O)[C@H]1O[C@H](O)[C@H](O)[C@@H](O)[C@@H]1O	0.03
Oc1cc2c(c(Cl)c1O)CCNCC2c1ccccc1 (stereo not drawn)	0
Cc1ccc(C23CNCC2C3)cc1 (stereo not drawn)	8.15
Cc1nnc2n1-c1sc(CCC(=O)N3CCOCC3)cc1C(c1ccccc1Cl)=NC2	3.6
NCCCC(O)(P(=O)(O)O)P(=O)(O)O	8.05
CCCCCCCCCCCCCCCCOc1nc2ccc(C)cc2c(=O)o1	1.27
OC(CCCN1CCN(c2ncc(F)cn2)CC1)c1ccc(F)cc1 (stereo not drawn)	5.4
O=C1OC(c2ccc(O)cc2)(c2ccc(O)cc2)c2ccccc21	1.8
COc1cc2ncnc(Sc3nnc(C)s3)c2cc1OC	-1.11
CC(CN(C)C)CN1c2ccccc2Sc2ccc(C#N)cc21 (stereo not drawn)	6.5
CC/C(=C(/c1ccc(/C=C/C(=O)O)cc1)c1ccc2[nH]ncc2c1)c1ccc(F)cc1Cl	11.2
NC(=O)c1ncn([C@@H]2O[C@H](CO)[C@@H](O)[C@H]2O)c1O	-5.11
O=C(Nc1cnn2ccc(N3CCC[C@@H]3c3cc(F)ccc3F)nc12)N1CC[C@H](O)C1	6.49
Cc1ncc([N+](=O)[O-])n1C	5.57
O=C(O)c1nc(=O)[nH]c(=O)[nH]1	-1.48
COc1ccc2cc([C@H](C)C(=O)O)ccc2c1	2.86
COC(=O)N[C@H](C(=O)N1CCC[C@H]1c1ncc(-c2ccc(-c3ccc(-c4cnc([C@@H]5CCCN5C(=O)[C@@H](NC(=O)OC)C(C)C)[nH]4)cc3)cc2)[nH]1)C(C)C	3.21
C=C[C@](C)(O)CC[C@@H]1[C@@]2(C)CCCC(C)(C)[C@@H]2CC[C@@]1(C)O	3.33
Nc1ccn([C@@H]2C(F)=C(CO)[C@@H](O)[C@H]2O)c(=O)n1	9.44
Cc1cccc(CN2CCN(C(c3ccccc3)c3ccc(Cl)cc3)CC2)c1 (stereo not drawn)	-2.55
Cc1cc(C)c(CNC(=O)c2cc(-c3ccc(CN4CCOCC4)cc3)cc3c2cnn3C2CCCC2)c(=O)[nH]1	8.82

Set 4
Target: Protein C-ets-1 (ETS1, Homo sapiens, UniProt P14921, residues 1-441, Y397A, full length assumed)
Chain of UniProt P14921 (whole entry, unmodified, looked up): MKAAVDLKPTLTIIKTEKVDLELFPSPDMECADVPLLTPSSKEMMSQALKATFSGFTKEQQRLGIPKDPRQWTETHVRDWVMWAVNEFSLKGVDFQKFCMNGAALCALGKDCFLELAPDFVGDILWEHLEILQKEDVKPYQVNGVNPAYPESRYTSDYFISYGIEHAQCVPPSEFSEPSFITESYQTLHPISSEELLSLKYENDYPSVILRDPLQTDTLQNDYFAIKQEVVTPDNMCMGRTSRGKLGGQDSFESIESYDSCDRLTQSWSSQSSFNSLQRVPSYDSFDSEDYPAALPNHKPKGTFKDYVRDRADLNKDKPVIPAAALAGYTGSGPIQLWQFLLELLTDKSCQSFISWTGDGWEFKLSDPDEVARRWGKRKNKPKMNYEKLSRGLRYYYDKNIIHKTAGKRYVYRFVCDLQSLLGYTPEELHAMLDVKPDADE
Method: protein-binding microarray
Molecule type: double-stranded DNA, one strand shown
Matrix: in vitro
Concentration: not given
Setting: k-mer, scored over probes, only values ≥0.25
Reading: higher = stronger binding
Sequence	E-score
AGTTTGCC	0.379
CTCCCCGC	0.273
ATTTTTGC	0.302
ACAGTGCA	0.254
ATACATAT	0.266
CACACGAC	0.266

Set 5
Target: Replicase polyprotein 1ab, main protease (rep, Severe acute respiratory syndrome coronavirus 2, UniProt P0DTD1)
Read-out: enzyme activity
Mode: inhibitor
Setting: no DTT
Compound	IC50
C[C@@H]1O[C@@H](Oc2c(-c3cc(O)c(O)c(O)c3)oc3cc(O)cc(O)c3c2=O)[C@@H](O)[C@H](O)[C@H]1O	3.7 µM
O=C1OC2(c3cc(I)c(O)c(I)c3Oc3c2cc(I)c(O)c3I)c2c(Cl)c(Cl)c(Cl)c(Cl)c21	> 20 µM
COc1cccc2c1C(=O)c1c(O)c3c(c(O)c1C2=O)C[C@@](O)(/C(CO)=N/NC(=O)CCCCCN1C(=O)C=CC1=O)C[C@@H]3O[C@H]1C[C@H](N)[C@H](O)[C@H](C)O1	0.6 µM
CC1=C(/C=C/C(C)=C/C=C/C(C)=C/C(=O)O)C(C)(C)CCC1	> 20 µM

Set 6
Target: Histone acetyltransferase KAT6A, winged helix 2, GST fusion (KAT6A, Homo sapiens, UniProt Q92794, residues 85-181)
Method: protein binding microarray
Molecule type: double-stranded DNA, one strand shown
Matrix: in vitro
Concentration: not given
Setting: 8-mer, flanks averaged, mean of 2 arrays, mostly near background
Relative to: not given
Reading: higher = stronger binding
Residues (chain): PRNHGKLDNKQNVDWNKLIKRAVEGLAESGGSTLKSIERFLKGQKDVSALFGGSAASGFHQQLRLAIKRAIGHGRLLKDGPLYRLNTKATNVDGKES
Sequence	E-score
CGAACATA	0.0382
AGCGCCCT	0.063
GGCGGATA	0.229
GCAGGTTA	-0.0109
ATGGTCTC	-0.11
CACACTTA	-0.056
CGTAATGA	-0.0771
GACACCAA	0.0256

Repeated from above (set 1):
SMILES	viability [%]
CN1CCc2nc(C(=O)N[C@@H]3C[C@@H](C(=O)N(C)C)CC[C@@H]3NC(=O)C(=O)Nc3ccc(Cl)cn3)sc2C1	51.8
COc1cc2nc(N3CCN(C(=O)C4CCCO4)CC3)nc(N)c2cc1OC (stereo not drawn)	109
CCCCCCCCCC(=O)O[C@H]1CC[C@H]2[C@@H]3CCC4=CC(=O)CC[C@@H]4[C@H]3CC[C@]12C	104
